Measurements of several laboratories.
Compare with care: the assays were run in different laboratories. Values joined by “and” are separate records of one study, mostly repeats; a detail may differ. Numbers after ± are the reported error.
Nuclear receptor subfamily 2 group C member 2 ligand-binding domain: Nuclear receptor subfamily 2 group C member 2, ligand-binding domain (Homo sapiens, UniProt P49116)
UniProt P11247, sequence (whole entry, looked up): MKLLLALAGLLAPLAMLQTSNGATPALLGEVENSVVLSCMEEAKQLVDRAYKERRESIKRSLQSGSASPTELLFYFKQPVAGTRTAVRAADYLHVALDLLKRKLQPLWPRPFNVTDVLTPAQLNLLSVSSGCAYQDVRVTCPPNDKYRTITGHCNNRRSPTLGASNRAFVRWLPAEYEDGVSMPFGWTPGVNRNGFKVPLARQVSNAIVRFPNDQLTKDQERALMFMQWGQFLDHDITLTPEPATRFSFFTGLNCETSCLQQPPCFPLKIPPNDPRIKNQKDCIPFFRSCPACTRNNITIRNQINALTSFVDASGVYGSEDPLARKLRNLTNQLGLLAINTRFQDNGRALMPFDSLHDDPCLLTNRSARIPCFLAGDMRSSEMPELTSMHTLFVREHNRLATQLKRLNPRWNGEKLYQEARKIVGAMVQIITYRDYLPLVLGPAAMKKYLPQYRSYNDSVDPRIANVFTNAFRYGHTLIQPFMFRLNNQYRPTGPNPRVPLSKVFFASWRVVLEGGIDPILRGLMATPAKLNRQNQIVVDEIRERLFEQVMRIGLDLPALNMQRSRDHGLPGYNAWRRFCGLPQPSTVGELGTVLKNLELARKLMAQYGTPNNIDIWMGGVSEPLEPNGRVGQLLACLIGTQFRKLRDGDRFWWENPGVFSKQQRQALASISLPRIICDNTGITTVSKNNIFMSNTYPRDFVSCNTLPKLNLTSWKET
UniProt P49116, sequence (whole entry, looked up): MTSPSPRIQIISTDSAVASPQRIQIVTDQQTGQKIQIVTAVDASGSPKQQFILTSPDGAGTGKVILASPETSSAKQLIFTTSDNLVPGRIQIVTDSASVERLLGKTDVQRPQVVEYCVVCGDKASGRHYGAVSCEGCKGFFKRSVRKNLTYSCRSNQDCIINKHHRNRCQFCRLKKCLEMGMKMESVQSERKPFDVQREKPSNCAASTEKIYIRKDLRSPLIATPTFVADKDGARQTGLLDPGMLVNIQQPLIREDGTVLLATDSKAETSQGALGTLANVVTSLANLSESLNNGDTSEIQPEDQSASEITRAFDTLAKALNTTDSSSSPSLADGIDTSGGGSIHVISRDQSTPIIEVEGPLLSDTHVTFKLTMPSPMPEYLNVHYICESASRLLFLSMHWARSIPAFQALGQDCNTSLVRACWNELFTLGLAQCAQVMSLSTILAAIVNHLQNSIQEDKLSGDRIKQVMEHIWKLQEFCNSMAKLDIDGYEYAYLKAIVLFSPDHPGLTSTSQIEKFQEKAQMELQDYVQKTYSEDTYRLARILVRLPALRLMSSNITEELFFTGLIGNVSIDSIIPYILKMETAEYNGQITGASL
UniProt P35606, sequence (whole entry, looked up): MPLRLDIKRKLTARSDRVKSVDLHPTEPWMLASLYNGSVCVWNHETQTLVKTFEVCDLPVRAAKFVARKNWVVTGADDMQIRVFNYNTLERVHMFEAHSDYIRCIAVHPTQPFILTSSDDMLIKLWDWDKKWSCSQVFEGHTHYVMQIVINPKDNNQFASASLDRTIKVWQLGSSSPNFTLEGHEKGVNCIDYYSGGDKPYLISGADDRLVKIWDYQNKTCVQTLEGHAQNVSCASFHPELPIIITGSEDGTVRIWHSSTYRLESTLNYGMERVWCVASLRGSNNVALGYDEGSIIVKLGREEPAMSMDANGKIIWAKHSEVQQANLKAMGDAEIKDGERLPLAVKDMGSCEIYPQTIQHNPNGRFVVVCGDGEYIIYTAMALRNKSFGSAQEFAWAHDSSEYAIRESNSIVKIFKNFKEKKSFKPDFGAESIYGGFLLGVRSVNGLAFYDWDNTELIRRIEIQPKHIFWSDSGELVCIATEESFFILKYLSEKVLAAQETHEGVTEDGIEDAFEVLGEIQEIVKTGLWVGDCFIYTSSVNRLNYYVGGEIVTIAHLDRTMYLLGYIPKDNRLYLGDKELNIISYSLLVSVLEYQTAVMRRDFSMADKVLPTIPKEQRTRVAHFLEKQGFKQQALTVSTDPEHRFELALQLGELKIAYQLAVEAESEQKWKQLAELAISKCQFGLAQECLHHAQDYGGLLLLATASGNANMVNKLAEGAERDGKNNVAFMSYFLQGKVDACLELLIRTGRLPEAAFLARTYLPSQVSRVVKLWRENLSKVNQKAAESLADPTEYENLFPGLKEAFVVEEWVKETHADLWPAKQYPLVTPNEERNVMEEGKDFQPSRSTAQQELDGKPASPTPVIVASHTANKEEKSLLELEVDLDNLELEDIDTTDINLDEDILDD
UniProt Q16774, sequence (whole entry, unmodified, looked up): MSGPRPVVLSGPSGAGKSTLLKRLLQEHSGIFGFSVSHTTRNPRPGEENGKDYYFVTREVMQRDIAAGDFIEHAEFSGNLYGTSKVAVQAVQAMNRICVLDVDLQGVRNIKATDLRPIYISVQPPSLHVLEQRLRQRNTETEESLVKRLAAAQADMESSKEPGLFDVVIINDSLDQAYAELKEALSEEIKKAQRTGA
UniProt P02749, sequence (whole entry, unmodified, looked up): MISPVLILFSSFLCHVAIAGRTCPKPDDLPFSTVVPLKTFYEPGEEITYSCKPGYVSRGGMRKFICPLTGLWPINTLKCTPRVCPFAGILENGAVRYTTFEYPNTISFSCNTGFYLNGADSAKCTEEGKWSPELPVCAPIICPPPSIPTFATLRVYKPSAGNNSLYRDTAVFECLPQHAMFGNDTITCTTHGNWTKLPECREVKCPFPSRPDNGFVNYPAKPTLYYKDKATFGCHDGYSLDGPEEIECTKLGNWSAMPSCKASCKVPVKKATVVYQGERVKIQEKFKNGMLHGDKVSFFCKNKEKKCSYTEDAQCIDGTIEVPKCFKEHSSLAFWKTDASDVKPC
UniProt Q14831, sequence (whole entry, looked up): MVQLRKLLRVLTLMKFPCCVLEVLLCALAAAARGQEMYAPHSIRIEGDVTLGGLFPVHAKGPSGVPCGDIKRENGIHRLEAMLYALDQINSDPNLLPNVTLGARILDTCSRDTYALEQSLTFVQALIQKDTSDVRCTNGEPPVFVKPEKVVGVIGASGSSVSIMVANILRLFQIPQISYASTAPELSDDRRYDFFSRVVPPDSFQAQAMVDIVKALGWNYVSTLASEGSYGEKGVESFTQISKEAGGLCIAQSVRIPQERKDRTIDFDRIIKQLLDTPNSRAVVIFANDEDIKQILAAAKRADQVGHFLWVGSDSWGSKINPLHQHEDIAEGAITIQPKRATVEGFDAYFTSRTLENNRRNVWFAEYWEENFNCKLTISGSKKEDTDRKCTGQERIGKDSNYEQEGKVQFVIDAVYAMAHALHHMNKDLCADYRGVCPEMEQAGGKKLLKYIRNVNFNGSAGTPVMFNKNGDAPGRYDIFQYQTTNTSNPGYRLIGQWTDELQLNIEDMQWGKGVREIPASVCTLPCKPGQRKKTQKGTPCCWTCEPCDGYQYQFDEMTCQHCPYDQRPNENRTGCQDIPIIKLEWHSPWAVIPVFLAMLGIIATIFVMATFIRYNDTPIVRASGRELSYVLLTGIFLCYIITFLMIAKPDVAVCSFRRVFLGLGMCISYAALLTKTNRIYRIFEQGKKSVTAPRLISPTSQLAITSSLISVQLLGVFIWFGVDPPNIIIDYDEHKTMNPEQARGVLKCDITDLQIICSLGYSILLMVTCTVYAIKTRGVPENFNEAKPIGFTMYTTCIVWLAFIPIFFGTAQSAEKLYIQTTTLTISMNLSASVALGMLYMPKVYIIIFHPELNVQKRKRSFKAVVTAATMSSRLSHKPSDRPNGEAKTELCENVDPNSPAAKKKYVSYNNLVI
UniProt P34995, sequence (whole entry, unmodified, looked up): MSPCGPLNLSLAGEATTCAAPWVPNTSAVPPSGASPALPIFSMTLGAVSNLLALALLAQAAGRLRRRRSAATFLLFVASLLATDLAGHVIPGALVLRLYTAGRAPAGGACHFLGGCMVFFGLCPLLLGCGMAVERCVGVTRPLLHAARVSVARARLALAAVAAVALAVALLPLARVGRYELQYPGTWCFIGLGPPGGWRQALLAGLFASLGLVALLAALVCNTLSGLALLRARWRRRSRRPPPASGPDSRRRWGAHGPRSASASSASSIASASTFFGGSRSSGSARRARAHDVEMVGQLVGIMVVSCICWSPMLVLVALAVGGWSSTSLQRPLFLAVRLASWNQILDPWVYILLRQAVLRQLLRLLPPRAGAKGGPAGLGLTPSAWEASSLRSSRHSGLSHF
UniProt P02763, sequence (whole entry, looked up): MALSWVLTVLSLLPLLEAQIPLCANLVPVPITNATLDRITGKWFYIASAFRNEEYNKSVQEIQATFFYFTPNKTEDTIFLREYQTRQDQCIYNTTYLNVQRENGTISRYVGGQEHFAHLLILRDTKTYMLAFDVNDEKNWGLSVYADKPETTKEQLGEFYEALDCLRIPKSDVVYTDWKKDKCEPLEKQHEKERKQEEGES

Compound	tested on	assay	system	conditions	scale	measurement	result
Oc1ccc(/C=C/c2cc(O)cc(O)c2)cc1	O-methyltransferase (Sorghum bicolor, UniProt A0A1B6PFV1)	biolayer interferometry		together with: saturating SAH	baseline: apo protein	koff fold decrease	7.26 fold
COc1cc(Nc2ncc3c(n2)-c2ccc(Cl)cc2C(c2c(F)cccc2OC)=NC3)ccc1C(=O)O	CSK	kinase activity		1 µM		remaining activity	39%
COc1cc(NC(=O)c2cscn2)ccc1/N=N/c1ccccc1Cl	Metabotropic glutamate receptor 7 (GRM7, Homo sapiens, UniProt Q14831)	positive allosteric modulator, IP accumulation	HEK293	30 µM, in the dark, together with: low-dose orthosteric agonist		activation	2.3%
N#Cc1cc(Cn2cncc2CN2CCN(c3cccc(OC(F)(F)F)c3)C(=O)C2)ccc1F	Cryptococcus neoformans farnesyltransferase	enzyme activity, inhibitor, fluorescence		together with: 1 µM FPP, 0.5 µM dansylated peptide		IC50	550 ± 30 nM
CNC(=O)c1cc(Oc2ccc(NC(=O)Nc3ccc(Cl)c(C(F)(F)F)c3)c(F)c2)ccn1	Nuclear receptor subfamily 2 group C member 2 ligand-binding domain	SPR imaging		600 nM		koff	3.74e-05 s⁻¹
CN(C)c1ccc(C(=O)NCCCCCC(=O)NO)cc1	OCI-Ly1			0.5 µM, 120 h		viability	144%
Nc1nc2c(ncn2[C@@H]2O[C@H](COP(=O)(O)OP(=O)(O)O)[C@@H](O)[C@H]2O)c(=O)[nH]1	GUK1 (Homo sapiens, UniProt Q16774)	ITC		concentration not given		-TΔS of binding	0.263 kcal/mol
O=C(O)c1cccnc1	Nuclear receptor subfamily 2 group C member 2 ligand-binding domain	binding				koff	9.14e-06 s⁻¹
O=c1nc(SCc2cc(F)cc(C(F)(F)F)c2)nc(SCc2ccc3nc(OCCN4CCOCC4)ccc3c2)[nH]1	DNA topoisomerase 2-alpha (TOP2A, Homo sapiens, UniProt P11388)	DNA cleavage		15.6 µM		mean linear DNA	0%
NC/C(=C\F)COc1cccc(Cn2c(=S)[nH]c(=O)c3[nH]cnc32)c1	Myeloperoxidase (Mus musculus, UniProt P11247)		mouse, zymosan or thioglycolate peritonitis, peritoneal fluid	30 mg/kg	baseline: peritonitis vehicle	MPO activity	159% and 88.8% and 81.6% and 64.5%
CCCOc1ccn2c(C(C)=O)cc(-c3ccccc3S(C)(=O)=O)c2c1	OCI-Ly1			0.5 µM, 120 h		viability	110%
CCCCC[C@H](O)/C=C/[C@H]1[C@H](O)CC(=O)[C@@H]1C/C=C\CCCC(=O)O	Prostaglandin E2 receptor EP1 subtype (PTGER1, Homo sapiens, UniProt P34995, T186A)	IP1 accumulation, agonist	AD293	1 h, EP1 T186A mutant		Emax	82.8 ± 6.75%
C[C@H](N)C(=O)N[C@@H](C)C(=O)N[C@H](C(=O)N[C@@H](CCCCN)C(=O)N[C@@H](CCC(N)=O)C(=O)N[C@H](C(=O)N[C@@H](C)C(=O)N[C@@H](CCCNC(=N)N)C(=O)N[C@@H](CCCCN)C(=O)N[C@@H](CO)C(=O)O)[C@@H](C)O)[C@@H](C)O	Transcriptional regulator ATRX (ATRX, Homo sapiens, UniProt P46100, F284Y/K251R)	isothermal titration calorimetry		pH 7.5, 25.0 °C		binding free energy	-5.32 kcal/mol
CC(Oc1ccccc1)C(=O)NCc1ccccn1 (centres unmarked)	Coatomer subunit beta', WD repeat domain (Homo sapiens, UniProt P35606)	binding, affinity selection mass spectrometry			baseline: other proteins in batch	fold enrichment	0.718
CO[C@H]1O[C@H](COS(=O)(=O)O)[C@@H](O[C@@H]2O[C@@H](C(=O)O)[C@@H](O[C@H]3O[C@H](COS(=O)(=O)O)[C@@H](O[C@@H]4O[C@H](C(=O)O)[C@@H](O[C@H]5O[C@H](COS(=O)(=O)O)[C@@H](O)[C@H](O)[C@H]5NS(=O)(=O)O)[C@H](O)[C@H]4O)[C@H](OS(=O)(=O)O)[C@H]3NS(=O)(=O)O)[C@H](O)[C@H]2OS(=O)(=O)O)[C@H](O)[C@H]1NS(=O)(=O)O	Beta-2-glycoprotein 1, domain V (APOH, Homo sapiens, UniProt P02749, V266L)	isothermal titration calorimetry		298 K, together with: 150 mM NaCl		entropic contribution TΔS	1.93 kcal/mol
CCS(=O)(=O)N1CC(CC#N)(n2cc(-c3ncnc4[nH]ccc34)cn2)C1	Alpha-1-acid glycoprotein 1 (ORM1, Homo sapiens, UniProt P02763)	fluorescence quenching		293 K		bimolecular quenching constant	5.92e+12 ± 4.1e+11 M⁻¹ s⁻¹
C[C@@H](c1ccc(-n2cnc3c(N)ncnc32)cc1)N1CCc2nn(C)c(Cc3ccccc3)c2C1=O	Epidermal growth factor receptor (EGFR, Homo sapiens, UniProt P00533, G719C)	KINOMEscan		0.1 µM	baseline: DMSO control	remaining binding	88%

A few entries again:
Compound	tested on	assay	system	conditions	scale	measurement	result
Oc1ccc(/C=C/c2cc(O)cc(O)c2)cc1	O-methyltransferase (Sorghum bicolor, UniProt A0A1B6PFV1)	biolayer interferometry		together with: saturating SAH	baseline: apo protein	koff fold decrease	7.26 fold
COc1cc(Nc2ncc3c(n2)-c2ccc(Cl)cc2C(c2c(F)cccc2OC)=NC3)ccc1C(=O)O	CSK	kinase activity		1 µM		remaining activity	39%
COc1cc(NC(=O)c2cscn2)ccc1/N=N/c1ccccc1Cl	Metabotropic glutamate receptor 7 (GRM7, Homo sapiens, UniProt Q14831)	positive allosteric modulator, IP accumulation	HEK293	30 µM, in the dark, together with: low-dose orthosteric agonist		activation	2.3%
